Published values collected from several papers.
Lines come from different studies, so protocols differ. “And” joins repeats or separate records; there may be more than shown. ± marks the error that the study gave.

`Fc1cccc(-n2cc(-c3ccccc3)nc2NCc2ccc(C(F)(F)F)c(F)c2)c1` gave a rate constant of 0.425 ± 0.0375 s⁻¹ (DPPH radical scavenging; methanol; first order kinetics).
The amount of `COc1cc(O)ccc1CCC(c1ccc(O)cc1)c1cc2c(c(C)c1O)OC(c1ccc(O)cc1)CC2` (mixture of isomers) is reported as 26400 ± 14000 pg/mL blood (refers to: TXB2; human whole blood; 0.3 µM, together with: Escherichia coli).
`Cc1cccc(C)c1CNc1cc(C(=O)N2CCC2)cn2c(C)c(C)nc12` — result for “gastric lesion area”: 4.7 ± 3 mm² (rat, indomethacin-induced ulcer; oral, 2 mg/kg, 6 h, together with: indomethacin 40 mg/kg).
`COc1ccc(NC(=O)c2ccc3[nH]c(-c4ccc(N(C)C)cc4)nc3c2)cn1` gave a tumour volume of 82.7 mm3 and 171 mm3 and 161 mm3 and 87.1 mm3 and 106 mm3 (CT26, BALB/c nude mice, subcutaneous graft; dose not given, day 2).
`COc1ccccc1-c1ccncc1C(=O)Nc1nnc(OCc2ccc(Cl)cc2)s1`: “RAD51 foci-positive nuclei” 9.36% and 6.86% and 2.46% (immunofluorescence; MEFs, Mus musculus; 10 µM, 24 h pretreatment, 0 h after irradiation, together with: ionising radiation 2 Gy).
`CC(=O)[O-].O.[Cu+2].[O-]c1ccc(Br)cc1C=NCCN1CCOCC1` — result for “ferric reducing power”: 21.6% (FRAP; 80 µM).
Under “supercoiled DNA form”, `Cc1c(C)c2cccnc2c2ncccc12.O=[N+]([O-])[O-].O=c1c(C=NN=C([S-])Nc2ccccc2)coc2ccccc12.[Cu+2]` is recorded as 48% (DNA cleavage; supercoiled pUC19 DNA; 100 µM, 4 h, 37 °C, no reducing agent, together with: DNA 40 µM).
`CCCCCCCCCCCCCCCC(=O)OCC(CSC[C@H](N)C(=O)N[C@@H](CO)C(=O)N[C@@H](CCCCN)C(=O)N[C@@H](CCCCN)C(=O)N[C@@H](CCCCN)C(=O)N[C@@H](CCCCN)C(=O)NCCCCCC(=O)N[C@@H](CCCCN)C(=O)N[C@@H](CC(C)C)C(=O)N[C@H](C(=O)N[C@@H](Cc1ccccc1)C(=O)N[C@@H](Cc1ccccc1)C(=O)N[C@@H](Cc1ccc2ccccc2c1)C(=O)O)C(C)C)OC(=O)CCCCCCCCCCCCCCC` (stereo partly drawn): “cleaved caspase-3 level” 0.25 and 0.000301 and 1.2 and 0.554 and 0.201 (APP/PS1 transgenic mouse, hippocampus; intrahippocampal, dose not given, unit not given; reference: injected over adjacent side).
For `O=S(=O)(NCc1ccncc1)c1ccc(C2CCCCC2)cc1`, “PU.1+ nuclei reduction” read ~25% (immunohistochemistry; CK-p25 mice female, hippocampus; ip, 0.3 mg/kg daily, 6 wk; reference: vehicle).
For `COCC1CN(C2CCN(c3cc(OC)c(Nc4ncc(Br)c(Nc5ccc6c(c5P(C)(C)=O)OCCO6)n4)cc3C)CC2)C1`, the partial response was 0% (RECIST 1.1; advanced EGFR-mutant NSCLC patients; 90 mg once daily).
`COc1c(Cl)cccc1Nc1c(-c2ccncc2C#C[C@@]2(C)CCCN2C(=O)/C=C/CN(C)C)[nH]c2c1C(=O)NCC2` — result for “tumour growth inhibition”: 89.5% (NCI-H2073 EGFR SVD knock-in xenograft, BALB/c nude mice; 25 mg/kg once daily, 21 days).
For `CN1CCCNC(=O)c2cccc(c2)C(=O)NCCCN(C)CCCNc2cccc3c2C(=O)c2cccc(c2C3=O)NCCC1`, the tumour volume was 159 mm3 and 171 mm3 and 98 mm3 and 154 mm3 (KSN/Slc nude mice, SAS xenograft; dose not given, day 4, 96 h).
For `COCCOCCOCCNC(=O)Cc1cc(CC(=O)N[C@H]2C[C@H]3C(=O)Nc4cc(OCCOCCOCCOC)cc(n4)C(=O)N4CCC[C@H]4C(=O)Nc4cc(OCCOCCOCCOC)cc(n4)C(=O)N4CCC[C@H]4C(=O)Nc4cc(OCCOCCOCCOC)cc(n4)C(=O)N3C2)cc(CC(=O)N[C@H]2C[C@H]3C(=O)Nc4cc(OCCOCCOCCOC)cc(n4)C(=O)N4CCC[C@H]4C(=O)Nc4cc(OCCOCCOCCOC)cc(n4)C(=O)N4CCC[C@H]4C(=O)Nc4cc(OCCOCCOCCOC)cc(n4)C(=O)N3C2)c1`, the ΔH was 10.1 ± 3.6 kJ mol^–1 (anion binding, ITC; water; 298 K, stoichiometry fixed at 1.00, together with: sodium chloride).
`CN1CCC[C@]1(C)/C=C/S(=O)(=O)NC(=O)Nc1c2c(cc3c1CCC3)CCC2` has an IL-18 inhibition of 105% (human, whole blood ex vivo; 250 mg single dose, 12 h, single ascending dose, together with: LPS and ATP).
With `NC[C@@H](C(=O)Nc1ccc(-c2cn[nH]c2)cc1)c1ccccc1` the IOP was 19.1 mmHg (tonometry; Macaca cyclopis, ocular normotensive; ocular, 0.03%, 48 h).
For `COC1CN([C@H]2CC[C@H]([C@@]3(C)Oc4c(Cl)cc(C(=O)NCc5c(SC)cc(C)[nH]c5=O)c(C)c4O3)CC2)C1`, “log2 fold change” read 1.37 (RNA-seq, refers to: WDR26; human, whole blood; dose not given, 24 h; reference: pretreatment baseline).
The LTB4 level of `COc1ccc(C(=O)CCc2cc(C(CCc3ccc(O)cc3OC)c3ccc(O)cc3)c(O)cc2OC)cc1` (racemic) is reported as 2600 ± 1030 pg/mL (human blood; 1 µM, together with: A23187).
`CC[C@H](C)[C@@H](C(=O)N[C@@H](CC(C)C)C(=O)N[C@@H](CO)C(=O)N[C@@H](CO)C(=O)N[C@H](C(=O)N[C@@H](CCC(=O)O)C(=O)N[C@H](C(=O)NCC(=O)N[C@@H](CO)C(=O)N[C@@H](CC(N)=O)C(=O)N[C@H](C(=O)N1C[C@H](O)C[C@H]1C(N)=O)[C@@H](C)O)C(C)C)[C@@H](C)O)N(C)C(=O)[C@H](C)NC(=O)CN(C)C(=O)[C@H](Cc1ccccc1)NC(=O)[C@H](CO)NC(=O)[C@H](CO)NC(=O)[C@H](CCCNC(=N)N)NC(=O)[C@H](CCC(N)=O)NC(=O)[C@H](CC(C)C)NC(=O)[C@H](Cc1ccccc1)NC(=O)[C@H](CCCC(=O)O)NC(=O)[C@H](C)NC(=O)[C@H](CC(C)C)NC(=O)[C@H](CCCNC(=N)N)NC(=O)[C@H](CCC(=O)O)NC(=O)[C@@H](NC(=O)[C@H](C)NC(=O)[C@@H]1CCCCNC(=O)C[C@H](NC(=O)[C@H](CCCNC(=N)N)NC(=O)CC[C@H](NC(=O)CCCCCCCCCCCCCCCCCCC(=O)O)C(=O)O)C(=O)NCC(=O)N[C@@H]([C@@H](C)O)C(=O)N[C@@H](C)C(=O)N[C@@H]([C@@H](C)O)C(=O)N1)[C@@H](C)O`: “cumulative food intake” 298 g/rat (diet-induced obese rats; subcutaneous, 15 nmol/kg every second day, day 20).

A few entries again:
Under “supercoiled DNA form”, `Cc1c(C)c2cccnc2c2ncccc12.O=[N+]([O-])[O-].O=c1c(C=NN=C([S-])Nc2ccccc2)coc2ccccc12.[Cu+2]` is recorded as 48% (DNA cleavage; supercoiled pUC19 DNA; 100 µM, 4 h, 37 °C, no reducing agent, together with: DNA 40 µM).
